{"data": "Assay results collected from several papers", "note": "Numbered parts are unrelated; each lists some results of a single study. Several values in a cell are separate wells, animals, samples, runs or records.", "sequence of UniProt Q09013 (whole entry, looked up)": "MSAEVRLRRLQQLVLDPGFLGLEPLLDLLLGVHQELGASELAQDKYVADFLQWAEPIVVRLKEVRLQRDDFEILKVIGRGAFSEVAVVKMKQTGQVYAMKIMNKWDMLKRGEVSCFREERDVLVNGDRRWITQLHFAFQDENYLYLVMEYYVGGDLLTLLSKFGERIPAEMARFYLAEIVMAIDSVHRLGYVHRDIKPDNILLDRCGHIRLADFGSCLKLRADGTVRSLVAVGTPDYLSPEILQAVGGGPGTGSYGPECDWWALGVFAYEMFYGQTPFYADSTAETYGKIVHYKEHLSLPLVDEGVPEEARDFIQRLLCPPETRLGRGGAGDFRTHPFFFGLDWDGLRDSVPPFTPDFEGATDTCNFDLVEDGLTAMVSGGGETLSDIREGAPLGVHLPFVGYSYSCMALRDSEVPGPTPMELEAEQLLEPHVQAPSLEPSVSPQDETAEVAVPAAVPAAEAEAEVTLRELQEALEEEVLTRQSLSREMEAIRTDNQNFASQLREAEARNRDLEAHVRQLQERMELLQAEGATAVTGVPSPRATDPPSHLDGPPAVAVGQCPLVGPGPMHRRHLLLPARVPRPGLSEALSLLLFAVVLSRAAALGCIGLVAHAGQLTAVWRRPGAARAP", "sequence of UniProt Q13523 (whole entry, looked up)": "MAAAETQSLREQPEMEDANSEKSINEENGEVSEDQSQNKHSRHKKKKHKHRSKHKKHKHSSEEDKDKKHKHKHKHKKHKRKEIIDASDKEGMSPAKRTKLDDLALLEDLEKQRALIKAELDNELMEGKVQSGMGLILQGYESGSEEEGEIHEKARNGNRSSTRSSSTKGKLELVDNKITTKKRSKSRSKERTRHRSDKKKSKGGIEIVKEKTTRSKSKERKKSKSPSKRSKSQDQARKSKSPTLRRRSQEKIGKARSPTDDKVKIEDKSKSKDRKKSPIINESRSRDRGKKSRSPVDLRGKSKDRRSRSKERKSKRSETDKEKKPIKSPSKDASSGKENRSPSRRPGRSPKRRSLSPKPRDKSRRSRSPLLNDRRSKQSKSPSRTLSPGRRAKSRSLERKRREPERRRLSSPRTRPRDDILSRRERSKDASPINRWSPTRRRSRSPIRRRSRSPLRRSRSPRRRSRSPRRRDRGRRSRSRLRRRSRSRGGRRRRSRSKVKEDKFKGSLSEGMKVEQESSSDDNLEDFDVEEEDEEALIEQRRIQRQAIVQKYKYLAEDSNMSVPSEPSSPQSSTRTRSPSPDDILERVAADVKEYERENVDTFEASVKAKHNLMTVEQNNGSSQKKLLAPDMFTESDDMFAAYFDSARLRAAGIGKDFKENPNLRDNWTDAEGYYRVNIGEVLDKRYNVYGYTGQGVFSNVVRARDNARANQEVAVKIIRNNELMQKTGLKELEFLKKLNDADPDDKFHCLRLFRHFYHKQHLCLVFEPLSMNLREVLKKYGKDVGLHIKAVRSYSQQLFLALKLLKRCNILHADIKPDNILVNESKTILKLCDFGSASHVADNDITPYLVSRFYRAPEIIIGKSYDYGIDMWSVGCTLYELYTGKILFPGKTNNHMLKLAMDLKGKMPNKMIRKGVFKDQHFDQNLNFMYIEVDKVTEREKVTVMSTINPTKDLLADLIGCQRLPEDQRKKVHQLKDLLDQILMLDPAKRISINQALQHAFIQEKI", "sequence of UniProt Q52WX2 (whole entry, looked up)": "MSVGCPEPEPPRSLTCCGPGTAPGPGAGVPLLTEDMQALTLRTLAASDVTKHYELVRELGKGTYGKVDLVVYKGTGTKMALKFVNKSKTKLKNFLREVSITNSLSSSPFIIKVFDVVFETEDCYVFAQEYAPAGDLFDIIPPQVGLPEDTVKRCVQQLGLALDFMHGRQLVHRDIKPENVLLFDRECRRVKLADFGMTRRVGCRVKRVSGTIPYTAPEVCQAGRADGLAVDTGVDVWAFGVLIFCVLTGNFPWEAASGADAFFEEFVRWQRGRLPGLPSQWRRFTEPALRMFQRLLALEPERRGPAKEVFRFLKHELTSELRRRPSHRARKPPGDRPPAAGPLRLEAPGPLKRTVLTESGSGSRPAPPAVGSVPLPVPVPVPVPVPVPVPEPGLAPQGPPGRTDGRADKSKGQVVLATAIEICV", "sequence of UniProt Q8IW41 (whole entry, looked up)": "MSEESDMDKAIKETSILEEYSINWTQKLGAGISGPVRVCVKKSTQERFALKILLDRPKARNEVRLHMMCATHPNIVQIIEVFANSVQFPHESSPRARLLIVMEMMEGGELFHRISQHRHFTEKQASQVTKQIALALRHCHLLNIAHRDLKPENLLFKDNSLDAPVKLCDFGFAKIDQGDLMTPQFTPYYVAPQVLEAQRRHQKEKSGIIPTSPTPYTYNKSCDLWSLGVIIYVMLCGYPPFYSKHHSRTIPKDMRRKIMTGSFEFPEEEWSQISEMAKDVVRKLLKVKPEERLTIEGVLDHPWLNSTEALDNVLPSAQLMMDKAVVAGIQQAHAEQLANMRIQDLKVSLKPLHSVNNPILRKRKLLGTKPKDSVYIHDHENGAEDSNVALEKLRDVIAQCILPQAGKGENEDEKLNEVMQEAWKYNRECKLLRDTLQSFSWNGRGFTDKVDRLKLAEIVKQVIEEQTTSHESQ", "sequence of UniProt P42685 (whole entry, looked up)": "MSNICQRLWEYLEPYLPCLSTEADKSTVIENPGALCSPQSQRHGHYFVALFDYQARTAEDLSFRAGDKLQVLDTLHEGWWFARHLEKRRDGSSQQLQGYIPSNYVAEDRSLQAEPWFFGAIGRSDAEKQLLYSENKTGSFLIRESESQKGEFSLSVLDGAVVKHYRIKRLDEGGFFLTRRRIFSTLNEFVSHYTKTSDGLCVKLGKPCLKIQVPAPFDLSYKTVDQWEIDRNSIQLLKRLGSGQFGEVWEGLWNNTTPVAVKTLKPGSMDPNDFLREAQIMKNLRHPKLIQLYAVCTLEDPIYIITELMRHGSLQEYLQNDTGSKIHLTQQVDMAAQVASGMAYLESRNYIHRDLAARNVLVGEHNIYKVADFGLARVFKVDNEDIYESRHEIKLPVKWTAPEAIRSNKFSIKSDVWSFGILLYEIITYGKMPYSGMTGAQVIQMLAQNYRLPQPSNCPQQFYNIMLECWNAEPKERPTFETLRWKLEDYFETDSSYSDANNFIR", "sequence of UniProt Q16288 (whole entry, looked up)": "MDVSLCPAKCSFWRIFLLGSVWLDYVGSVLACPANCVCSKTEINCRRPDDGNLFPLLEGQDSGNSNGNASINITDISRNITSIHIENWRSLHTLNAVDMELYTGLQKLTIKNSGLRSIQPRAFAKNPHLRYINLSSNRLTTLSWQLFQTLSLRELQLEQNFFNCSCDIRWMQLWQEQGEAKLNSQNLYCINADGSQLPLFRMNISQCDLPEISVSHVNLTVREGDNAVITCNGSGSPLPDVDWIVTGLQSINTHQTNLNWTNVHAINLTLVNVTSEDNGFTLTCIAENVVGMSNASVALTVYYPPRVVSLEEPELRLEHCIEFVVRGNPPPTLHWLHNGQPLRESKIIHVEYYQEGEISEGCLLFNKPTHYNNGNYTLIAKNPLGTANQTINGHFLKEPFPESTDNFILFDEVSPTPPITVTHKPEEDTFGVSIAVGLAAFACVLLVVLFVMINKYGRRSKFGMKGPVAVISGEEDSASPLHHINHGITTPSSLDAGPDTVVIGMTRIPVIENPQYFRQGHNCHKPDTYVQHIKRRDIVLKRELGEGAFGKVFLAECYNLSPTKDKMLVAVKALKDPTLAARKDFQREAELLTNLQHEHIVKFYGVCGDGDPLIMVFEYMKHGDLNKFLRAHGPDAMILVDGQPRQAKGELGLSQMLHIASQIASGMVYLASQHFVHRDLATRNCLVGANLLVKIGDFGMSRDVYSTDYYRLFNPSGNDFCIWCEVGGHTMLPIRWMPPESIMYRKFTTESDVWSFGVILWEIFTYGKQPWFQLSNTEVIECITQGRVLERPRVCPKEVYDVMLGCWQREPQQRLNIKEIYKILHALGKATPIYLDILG", "sequence of UniProt P10721 (whole entry, unmodified, looked up)": "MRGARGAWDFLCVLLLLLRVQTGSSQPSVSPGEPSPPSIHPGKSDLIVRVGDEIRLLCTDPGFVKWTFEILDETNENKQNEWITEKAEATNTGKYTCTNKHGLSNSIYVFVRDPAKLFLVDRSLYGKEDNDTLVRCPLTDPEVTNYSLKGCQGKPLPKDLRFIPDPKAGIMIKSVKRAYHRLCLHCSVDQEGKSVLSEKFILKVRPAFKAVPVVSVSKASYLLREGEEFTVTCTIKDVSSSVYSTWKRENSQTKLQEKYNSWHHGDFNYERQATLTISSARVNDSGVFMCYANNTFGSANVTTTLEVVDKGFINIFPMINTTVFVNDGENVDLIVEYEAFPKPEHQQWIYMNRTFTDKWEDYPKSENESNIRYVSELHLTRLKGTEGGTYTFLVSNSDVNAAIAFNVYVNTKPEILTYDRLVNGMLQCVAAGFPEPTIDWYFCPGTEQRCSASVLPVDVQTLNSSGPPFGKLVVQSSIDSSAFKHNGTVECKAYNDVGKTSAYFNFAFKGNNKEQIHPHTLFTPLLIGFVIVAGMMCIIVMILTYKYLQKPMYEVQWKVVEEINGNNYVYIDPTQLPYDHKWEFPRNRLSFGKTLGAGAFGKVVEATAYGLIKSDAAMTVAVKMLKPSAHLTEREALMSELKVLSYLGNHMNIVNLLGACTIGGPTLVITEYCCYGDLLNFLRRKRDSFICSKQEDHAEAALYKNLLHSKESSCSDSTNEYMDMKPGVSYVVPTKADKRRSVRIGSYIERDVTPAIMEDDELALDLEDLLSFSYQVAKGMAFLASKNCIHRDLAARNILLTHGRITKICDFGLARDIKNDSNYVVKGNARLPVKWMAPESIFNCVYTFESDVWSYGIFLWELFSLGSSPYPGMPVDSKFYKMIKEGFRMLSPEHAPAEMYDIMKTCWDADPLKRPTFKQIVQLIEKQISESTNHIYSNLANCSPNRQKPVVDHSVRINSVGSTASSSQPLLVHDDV"}
{"data": "Sample 1", "Compound": "O=C(NC(NC(=S)Nc1ccc(F)c([N+](=O)[O-])c1)C(Cl)(Cl)Cl)C(c1ccccc1)c1ccccc1 (centres unmarked)", "observed": "enzyme activity", "action": "inhibitor", "tested at": "0.5 µM", "baseline": "control"}
{"target": "NTRK3 (Homo sapiens, UniProt Q16288)", "remaining activity": "108%"}
{"target": "Cyclin-dependent kinase 2, with cyclin A (CDK2, Homo sapiens, UniProt P24941)", "remaining activity": "102%"}
{"target": "Aurora kinase A (AURKA, Homo sapiens, UniProt O14965)", "remaining activity": "80.8%"}
{"target": "MAP3K8 (Homo sapiens, UniProt P41279)", "remaining activity": "105%"}
{"target": "SLK (Homo sapiens, UniProt Q9H2G2)", "remaining activity": "95.2%"}
{"target": "DMPK (Homo sapiens, UniProt Q09013)", "remaining activity": "85.5%"}
{"target": "CAMK1D (Homo sapiens, UniProt Q8IU85)", "remaining activity": "99%"}
{"data": "Sample 2", "SMILES": "CCOc1ccc(Nc2c3c(nc4ccccc24)CCC3)cc1"}
{"cell line": "RAW264.7", "test": "resazurin", "conditions": "16.66 µM, 64 h", "cytotoxicity": "53% and 25%"}
{"cell line": "PMA-differentiated THP-1 macrophages", "conditions": "80 µM, 64 h", "cytotoxicity": "103% and 104%"}
{"cell line": "HepG2", "test": "resazurin", "conditions": "0.0332 µM, 48 h", "cytotoxicity": "2% and 1%"}
{"cell line": "J774.1", "test": "resazurin", "conditions": "0.66 µM", "cytotoxicity": "-3% and -5%"}
{"cell line": "J774.1", "test": "resazurin", "conditions": "3.32 µM", "cytotoxicity": "12% and 20%"}
{"cell line": "HEK293", "test": "resazurin", "conditions": "0.32 µM, 10% serum", "cytotoxicity": "1%"}
{"cell line": "PMA-differentiated THP-1 macrophages", "conditions": "0.04 µM, 64 h", "cytotoxicity": "4% and 1%"}
{"cell line": "PMA-differentiated THP-1 macrophages", "conditions": "0.08 µM, 64 h", "cytotoxicity": "-1% and 6%"}
{"data": "Sample 3", "SMILES": "O=C(O)[C@@H]1[C@@H](Cn2nnc3ccccc3c2=O)CC[C@H]1C(=O)c1ccc(OCCC2CCOCC2)cc1", "technique": "competition with immobilised ligand", "tested at": "1 µM"}
{"target": "EPHA5 (Homo sapiens, UniProt P54756)", "test": "cell-free assay", "remaining binding [%]": 94}
{"target": "MAPKAPK5 (Homo sapiens, UniProt Q8IW41)", "test": "cell-free assay", "remaining binding [%]": 76}
{"target": "DMPK (Homo sapiens, UniProt Q09013)", "test": "cell-free assay", "remaining binding [%]": 100}
{"target": "CILK1 (Homo sapiens, UniProt Q9UPZ9)", "test": "binding", "remaining binding [%]": 97}
{"target": "MAPK15 (Homo sapiens, UniProt Q8TD08)", "test": "cell-free assay", "remaining binding [%]": 100}
{"target": "BMPR1B (Homo sapiens, UniProt O00238)", "test": "cell-free assay", "remaining binding [%]": 78}
{"target": "COQ8A (Homo sapiens, UniProt Q8NI60)", "test": "cell-free assay", "remaining binding [%]": 88}
{"target": "PRPF4B (Homo sapiens, UniProt Q13523)", "test": "cell-free assay", "remaining binding [%]": 80}
{"target": "KIT (Homo sapiens, UniProt P10721, A829P)", "test": "cell-free assay", "remaining binding [%]": 90}
{"target": "FLT3 (Homo sapiens, UniProt P36888, D835Y)", "test": "cell-free assay", "remaining binding [%]": 100}
{"target": "MAPK1 (Homo sapiens, UniProt P28482)", "test": "cell-free assay", "remaining binding [%]": 93}
{"target": "LCK (Homo sapiens, UniProt P06239)", "test": "cell-free assay", "remaining binding [%]": 93}
{"target": "SBK1 (Homo sapiens, UniProt Q52WX2)", "test": "cell-free assay", "remaining binding [%]": 100}
{"target": "FRK (Homo sapiens, UniProt P42685)", "test": "cell-free assay", "remaining binding [%]": 89}
{"target": "EPHA6 (Homo sapiens, UniProt Q9UF33)", "test": "cell-free assay", "remaining binding [%]": 97}
{"target": "SYK (Homo sapiens, UniProt P43405)", "test": "cell-free assay", "remaining binding [%]": 100}
{"target": "ALK (Homo sapiens, UniProt Q9UM73, C1156Y)", "test": "cell-free assay", "remaining binding [%]": 100}
{"data": "Sample 4", "host": "human", "sample": "microsomes or S9", "tested at": "2 µM", "time": "0.5 h"}
{"Compound": "Cc1ccc(C#N)c(NC(C)Cc2c(C)noc2C)n1 (centres unmarked)", "remaining compound": "0.539%"}
{"Compound": "Oc1ccc(C23CCCC2C2(CCCC2)c2ccc(O)cc2O3)c(O)c1 (centres unmarked)", "remaining compound": "43.3%"}
{"Compound": "COc1cc(=O)n(C)cc1C(=O)N1CCc2[nH]c(=O)c(C#N)cc2C1", "remaining compound": "> 99%"}
{"Compound": "Cn1cc(-c2noc(C3CCCCC3)n2)ccc1=O", "remaining compound": "48%"}
{"Compound": "CCOc1ccccc1-n1nnc(C(=O)O)c1-c1ccncc1", "remaining compound": "> 99%"}
{"Compound": "Clc1ccc(-c2c(-n3cncn3)nc3ccc(Cl)cc3c2Cl)c(Cl)c1", "remaining compound": "50.7%"}
{"Compound": "CC(C)CCN(C)C1CCN(S(=O)(=O)c2ccc(C3CCCCC3)cc2)CC1", "remaining compound": "61.4%"}
{"Compound": "COc1ccc(Cc2nc3c4cnn(-c5cc(Cl)ccc5Cl)c4ncn3n2)cc1", "remaining compound": "73.8%"}
{"Compound": "CCN(CC)S(=O)(=O)c1cc(Br)cnc1N", "remaining compound": "37.1%"}
{"Compound": "COc1cc(-c2cc(NC(=O)C3CCCN(c4ncnc5c4nc4n5CCCCC4)C3)on2)cc(OC)c1OC (centres unmarked)", "remaining compound": "5.34%"}
{"Compound": "CCN(CC)C(=O)[C@@H]1C[C@@H](NC(=O)Cn2ccc3ccccc32)CN1C", "remaining compound": "58.9%"}
{"Compound": "CC1(C)CC(NS(=O)(=O)c2cc(Cl)ccc2Cl)CC(C)(C)N1", "remaining compound": "80.9%"}
